Assay results gathered from unrelated publications.
Each numbered part is a random draw from the data of one study; scales do not carry over between parts. Substitutions count along the parent as printed.

Study 1 — technique: protein-binding microarray; form: double-stranded DNA, one strand shown; medium: in vitro; concentration: 250 nM; notes: 60-bp whole probe; with: salmon DNA 0.4 mg/ml; relative to: random background probes; reading: higher = stronger binding; all sequences stand within: GCCTAGCAC … GTCTTGATTCGCTTGACGCTGCTG
Target: Interferon regulatory factor 7, full length, phosphomimetic (IRF7, Homo sapiens, UniProt Q92985, residues 1-503, S101K/S471D/S472D/S475D/S476D/S477D/S483D/S484D/S487D)
Construct (chain): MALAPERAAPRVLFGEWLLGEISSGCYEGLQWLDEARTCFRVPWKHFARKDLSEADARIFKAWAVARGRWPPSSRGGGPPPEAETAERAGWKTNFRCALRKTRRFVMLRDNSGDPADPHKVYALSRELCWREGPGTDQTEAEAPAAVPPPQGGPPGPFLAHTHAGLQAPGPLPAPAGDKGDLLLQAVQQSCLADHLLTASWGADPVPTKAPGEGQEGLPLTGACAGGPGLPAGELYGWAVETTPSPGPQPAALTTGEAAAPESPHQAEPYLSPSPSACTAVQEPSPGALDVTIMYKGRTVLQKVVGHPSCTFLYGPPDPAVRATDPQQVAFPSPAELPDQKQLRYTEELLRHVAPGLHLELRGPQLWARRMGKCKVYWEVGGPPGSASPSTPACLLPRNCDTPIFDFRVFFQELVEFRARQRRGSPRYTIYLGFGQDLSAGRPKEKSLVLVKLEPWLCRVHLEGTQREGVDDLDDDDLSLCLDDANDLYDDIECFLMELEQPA
Sequence | log fluorescence [z-score]
CCCACTTTCAGTTCTCCCTTGTGCTAG | 2.09
TTAGGAGTGGGTATCGGTTAGTGCTAG | 0.24
ATCTTCATGAAATTTTAGTAAGTGCTA | 0.0259
GACGGTCTCCTTCTCCAGACGTGCTAG | -0.0752
TTAGGGCTGGACACTGGGTTAGTGCTA | -1.01
TTAGGTTTCTGTTTCGGTTAGTGCTAG | 11
TTAGGACTTGGTCTCGGTTAGTGCTAG | 1.62
TTAGACTTCGGGACTGGATTAGTGCTA | -0.364
TTAGGTTTCCTTCTCATTTAGTGCTAG | 2.21
TTAGGTATCGGTTACGGTTAGTGCTAG | 1.93
AGGGTCCCGCGATTCGACACGTGCTAG | 0.0142
TCATGTCTGGAGTCTCTGACTGTGCTA | -0.313
GCTGGTCTCTAACTCAAGATGTGCTAG | -0.325
GACCGACTGGACACTGGGGACGTGCTA | -0.476
TTAGCTTTCCTTTTCCTTTAGTGCTAG | 1.93
TGTCATTTTCTCTTATTCTAGTGCTAG | 1.12
GACGATATCAGAATGGAGACGTGCTAG | -0.133
TCATGTTTCCTTGTACGACTGTGCTAG | 1.59
TCATTCATGAAATTTTAAACTGTGCTA | 0.792
TTAGGACTGCTTCTCTTTTAGTGCTAG | 0.792
AGATTTTTCTCAACCGTTGTGTGCTAG | 0.189
TCAGTTCTGATCCTTCCCACTGTGCTA | 0.75
ATAGGTATCCTTTTCCTTTAGTGCTAG | 1.6
CTCTACATGGGTATAGAGTAGTGCTAG | -0.254

Study 2 — target: UBE2T UBC core domain (UniProt Q9NPD8); technique: yeast two-hybrid; medium: yeast; notes: mostly zero background; relative to: not given; reading: higher = stronger interaction
B1: TRIM34 RING domain (UniProt Q9BYJ4); chain ILLNVQEEVTCPICLELLTEPLSLDCGHSLCRACITVSNKEAVTSMGGKSSCPVCGISYSFEHLQA
B2: MDM2 RING domain (UniProt Q00987); chain TQDKEESVESSLPLNAIEPCVICQGRPKNGCIVHGKTGHLMACFTCAKKLKKRNKPCPVCRQPIQMIVLTYFP
B3: MARCHF2 RING domain (UniProt Q9P0N8); chain RLLSTVIRALDTPSDGPFCRICHEGANGECLLSPCGCTGTLGAVHKSCLEKWLSSSNTSYCELCHTEFAVEKRPRPLTEWL
B4: TRIM32 RING domain (UniProt Q13049); chain NLDALREVLECPICMESFTEEQLRPKLLHCGHTICRQCLEKLLASSINGVRCPFCSKITRITSLTQ
B5: NHLRC1 RING domain (UniProt Q6VVB1); chain MREAEISLLECKVCFEKFGHRQQRRPRNLSCGHVVCLACVAALAHPRTLALECPFCRRACRGCDTSD
B6: TRIM68 RING domain (UniProt Q6AZZ1); chain LVEAIVEEVACPICMTFLREPMSIDCGHSFCHSCLSGLWEIPGESQNWGYTCPLCRAPVQPRNLRP
Target sequence (chain): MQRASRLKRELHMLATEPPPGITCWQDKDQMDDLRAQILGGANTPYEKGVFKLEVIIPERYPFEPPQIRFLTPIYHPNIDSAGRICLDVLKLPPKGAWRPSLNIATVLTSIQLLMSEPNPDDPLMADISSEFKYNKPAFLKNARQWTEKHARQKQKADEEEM
Molecule | lacZ reporter activity
EDVLSKDAGECAICLEELQQGDTIARLPCLCIYHKGCIDEWFEVNRSCPEHPSD (ZNRF2 RING domain (UniProt Q8NHG8)) | 0
B1 (TRIM34 RING domain) | 0
B2 (MDM2 RING domain) | 0
B3 (MARCHF2 RING domain) | 0
B4 (TRIM32 RING domain) | 0
B5 (NHLRC1 RING domain) | 0
MEEMEEELKCPVCGSFYREPIILPCSHNLCQACARNILVQTPESESPQSHRAAGSGVSDY (TRIM9 RING domain (UniProt Q9C026)) | 0
B6 (TRIM68 RING domain) | 0
KITELNPHLMCALCGGYFIDATTIVECLHSFCKTCIVRYLETNKYCPMCDVQVHKTRPLL (PCGF2 RING domain (UniProt P35227)) | 7210

Study 3 — target: CCNA2, cyclin fold, Cln2 fusion (human); technique: yeast growth competition, sequencing; medium: yeast; notes: strong parent motif; relative to: not given; reading: higher = stronger binding
Starting sequence: CDC25A docking peptide (human); PPHRRRLLFACSP
Substitution | normalised enrichment score
PPHRRRLWFACSP [L8W] | 2.06
PPHDRRLLFACSP [R4D] | 0.707
PCHRRRLLFACSP [P2C] | 2.61
PPHRRRLLCACSP [F9C] | 0.848
PPHRRRLLFACRP [S12R] | 1.83
PPHRRRLLFAASP [C11A] | 3.09
KPHRRRLLFACSP [P1K] | 3
PPHRRRLLHACSP [F9H] | 0.984
PPIRRRLLFACSP [H3I] | 4.46
PPHRRRLLFACSI [P13I] | 1.78
PPFRRRLLFACSP [H3F] | 4.5
PPHGRRLLFACSP [R4G] | 1.73
CPHRRRLLFACSP [P1C] | 1.8
PPHRRRLLFACSL [P13L] | 2.27
PPHRRRQLFACSP [L7Q] | 0.939
PMHRRRLLFACSP [P2M] | 2.08
PPHRRRLTFACSP [L8T] | 3.22
PPHRRRLLFACLP [S12L] | 2.82
PPHRRRLLFALSP [C11L] | 2.13
PPHRRRLLFACSG [P13G] | 2.97
PPHRRRLLFACSR [P13R] | 2.01
PKHRRRLLFACSP [P2K] | 3.01
PPHQRRLLFACSP [R4Q] | 2.02
PPHARRLLFACSP [R4A] | 3.43
PPHRRRLLFACSQ [P13Q] | 2.26

Study 4 — technique: DHFR PCA, deep sequencing; medium: yeast; with: (+)-ABA 2500 µM; relative to: wild-type fitted maximum; reading: higher = stronger binding
Target: ABI1, truncated, D143A, DHFR fusion (Arabidopsis thaliana)
Notes: methotrexate growth selection, single substitutions
Starting sequence: PYL1, truncated, DHFR fusion (Arabidopsis thaliana); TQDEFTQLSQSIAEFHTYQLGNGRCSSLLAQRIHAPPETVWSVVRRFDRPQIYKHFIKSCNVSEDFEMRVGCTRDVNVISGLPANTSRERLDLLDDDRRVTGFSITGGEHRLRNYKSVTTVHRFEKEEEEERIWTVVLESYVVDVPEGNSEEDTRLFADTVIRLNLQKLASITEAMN; partner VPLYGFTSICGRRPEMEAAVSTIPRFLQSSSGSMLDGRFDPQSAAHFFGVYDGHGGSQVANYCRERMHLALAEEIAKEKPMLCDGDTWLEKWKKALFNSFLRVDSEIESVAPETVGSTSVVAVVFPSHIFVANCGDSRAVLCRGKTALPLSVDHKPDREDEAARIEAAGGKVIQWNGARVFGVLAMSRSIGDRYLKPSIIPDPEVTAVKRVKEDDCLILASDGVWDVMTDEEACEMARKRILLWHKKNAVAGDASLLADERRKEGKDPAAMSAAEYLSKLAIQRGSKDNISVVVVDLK
Substitution | relative binding score
I12G | 74.1%
C60T | 92%
Q19I | 94.2%
K58L | 90.2%
V78Y | 62.8%
S87A | 91.1%
Q167P | 6.23%
W41P | -28.3%
H16T | 41%
R49T | 95.3%
Q31V | 75.8%
V118G | 28.4%
E128C | 96.5%
F66A | 97.4%
A170N | 85.4%
N165Y | 70.1%
D95N | 94.2%
V100Y | 84.5%
E130T | 103%
Y115A | 6.28%
P36N | 96.4%
N149V | 76.6%

Study 5 — technique: protein binding microarray; form: double-stranded DNA, one strand shown; medium: in vitro; concentration: not given; relative to: not given; reading: higher = stronger binding
Target: Histone acetyltransferase KAT6A, both winged helices, GST fusion (KAT6A, Homo sapiens, UniProt Q92794, residues 1-181)
Notes: 8-mer, flanks averaged, mean of 2 arrays, mostly near background
Residues (chain): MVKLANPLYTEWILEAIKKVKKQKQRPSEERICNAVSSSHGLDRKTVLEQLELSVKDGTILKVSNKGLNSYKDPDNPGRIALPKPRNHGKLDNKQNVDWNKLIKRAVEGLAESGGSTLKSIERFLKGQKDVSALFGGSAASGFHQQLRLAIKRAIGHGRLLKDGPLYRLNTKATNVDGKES
Sequence | E-score
AACTAAAA | -0.0818
CTACGTAA | 0.0645
CCTCGGCA | 0.187
ATTAGTGG | -0.127
AAAGATAT | -0.149
TACAACGA | -0.107
ATACCAGC | -0.172
ACCACACC | -0.0945
ATTTTAAC | -0.17
AGTGCGTG | 0.121
GGGCAACC | -0.0859
ACTGGTCG | -0.0241
CTGCAGGC | -0.107
AGTAGGTA | -0.152
AAGACCAT | -0.179
CCAGCTGG | -0.174
CGCGACGC | 0.363
CACTTAGC | -0.0678
CGGAACGA | -0.0147
ATGTCCAG | 0.00508
GCCTACCA | -0.00381
AAAACATG | -0.0801
CGGCACCG | 0.344
ACCAGTCC | -0.0183
AACGTATA | 0.0636

For quick reference, copied from above (study 5):
Sequence | E-score
TACAACGA | -0.107
ATACCAGC | -0.172
ACCACACC | -0.0945
ATTTTAAC | -0.17
AGTGCGTG | 0.121
GGGCAACC | -0.0859
ACTGGTCG | -0.0241
CTGCAGGC | -0.107
AGTAGGTA | -0.152
AAGACCAT | -0.179
CCAGCTGG | -0.174
CGCGACGC | 0.363
CACTTAGC | -0.0678
CGGAACGA | -0.0147
